Published values gathered from unrelated publications.
Each line is one published result; not all experiments were run side by side. Numbers after ± are the reported error.

SMILES | test | system | conditions | scale | measurement | result
CN1CC[C@@H](c2c(O)cc(O)c3c(=O)cc(-c4ccc(C(F)(F)F)cc4Cl)oc23)[C@@H]1CO | refers to: Hypotension | relapsed AML | oral, 100 mg, grade 3-4, intermittent dosing | – | patients with adverse event | 0%
COc1cc2c(Oc3ccc4[nH]c(C)cc4c3F)ccnc2cc1OCC1(N)CC1 | – | paediatric recurrent refractory sarcoma | 10 mg | – | grade 1 or 2 Hyperuricemia | 0%
CO[C@H]1C[C@@H]2CC[C@@H](C)[C@@](O)(O2)C(=O)C(=O)N2CCCC[C@H]2C(=O)O[C@H]([C@H](C)C[C@@H]2CC[C@@H](OC(=O)NCCOCCOCCOCCOCCOCCOCCOCCOCCC(=O)N3CCc4cc(Cn5nc(-c6ccc7oc(N)nc7c6)c6c(N)ncnc65)ccc4C3)[C@H](OC)C2)C[C@@H](O)[C@H](C)/C=C(\C)[C@@H](O)[C@@H](OC)C(=O)[C@H](C)C[C@H](C)/C=C/C=C/C=C/1C | – | patients with advanced solid tumours | intravenous, 8 mg weekly, grade 3 or higher | – | decreased appetite leading to dose reduction | 0%
CCCCCCCCCCC[C@H](OC1OC[C@H](O)[C@@H](O)[C@@H]1O)[C@H](O)[C@H](O)C[C@@H]1CC(=O)N[C@H](CO)C(=O)N[C@H]([C@H](O)c2ccc(O)cc2)C(=O)N[C@H](CCN)C(=O)NCC(=O)N[C@@H](CC(N)=O)C(=O)N[C@@H](CO)C(=O)N[C@@H]([C@H](O)C(N)=O)C(=O)N1 (stereo partly shown) | LC-MS/MS | rabbit plasma, sodium citrate | 200 ng/mL, 6 freeze-thaw cycles | – | measured concentration | 162 ng/mL
CC(C)(C(=O)NC1C2CC3CC1CC(C(N)=O)(C3)C2)N1CCN(c2ccc(C(F)(F)F)cn2)CC1 (stereo not shown) | refers to: metabolite | human, CSF | oral, 10 mg once daily, 5 days, median | – | dose-normalised AUC(0-24) | 0.46 (ng·h/mL)/mg
CCCCCc1cc(O)c(C/C=C(\C)CCC=C(C)C)c(O)c1 | LC-MS/MS | Scn1a+/− mice, both sexes, plasma | intraperitoneal, 30 mg/kg, after hyperthermia protocol | – | plasma concentration | 1100 ± 100 ng/mL
C[C@]1(CO)Cc2ncn(-c3ccc(C#N)c(Cl)c3)c2C(=O)O1 | – | human, plasma | 40 mg multiple doses | baseline: dose-proportional exposure | linearity index | 100%
N=C(N)NCCC[C@@H](NC(=O)[C@@H](N)Cc1ccccc1)C(=O)N[C@@H](Cc1ccccc1)C(=O)N[C@@H](CCCCN)C(N)=O | – | early Huntington's disease patients, urine | subcutaneous, 5 mg, 5.833 h, mean | – | fraction of dose excreted in urine | 21.7%
O=C(Nc1ccccc1)C1CCN(C(=O)Oc2cccnc2)CC1 | – | healthy women | oral, 20 mg, 7 days | – | adverse event Asthenia | 0%
Cc1ccc(F)c2cc(C(=O)N[C@@H]3CCC[C@H](N4CC[C@H](N(C)S(C)(=O)=O)C4)C3)[nH]c12 | – | CD1 mouse | oral, 100 mg/kg | – | terminal half-life | 2.1 h
CCOC(=O)C1=C[C@@H](OC(CC)CC)[C@H](NC(C)=O)[C@@H](N)C1 | population pharmacokinetic model | Sprague-Dawley rats, male, plasma and urine | oral, 30 mg/kg, alone, bootstrap median | – | elimination rate constant | 0.000406 s⁻¹
CCCCCOc1ccc(-c2ccc(-c3ccc(C(=O)N[C@H]4C[C@@H](O)[C@@H](OCC[N+](C)(C)C)NC(=O)[C@@H]5[C@@H](O)[C@@H](C)CN5C(=O)[C@H]([C@@H](C)O)NC(=O)[C@H]([C@H](O)[C@@H](O)c5ccc(O)cc5)NC(=O)[C@@H]5C[C@@H](O)CN5C(=O)[C@H]([C@@H](C)O)NC4=O)cc3)cc2)cc1 | – | adult ICU patients, mITT, serum | dose not given, day 30 | – | albumin | 28.1 g/L
CCc1ccc(CC/C=C/c2ccc3c(c2)C(=O)CC3)cc1 | – | Sprague-Dawley rat, female | oral, 30 mg/kg/day, 14 days | – | Urea | 4.83 mM

Some of these lines once more:
SMILES | test | system | conditions | scale | measurement | result
CCCCCc1cc(O)c(C/C=C(\C)CCC=C(C)C)c(O)c1 | LC-MS/MS | Scn1a+/− mice, both sexes, plasma | intraperitoneal, 30 mg/kg, after hyperthermia protocol | – | plasma concentration | 1100 ± 100 ng/mL
C[C@]1(CO)Cc2ncn(-c3ccc(C#N)c(Cl)c3)c2C(=O)O1 | – | human, plasma | 40 mg multiple doses | baseline: dose-proportional exposure | linearity index | 100%
